Published values collected from several papers.
Compare with care: the assays were run in different laboratories. ± gives the spread as reported.

Compound	tested on	test	test system	conditions	measurement	value
CO[C@H]1C[C@@H]2CC[C@@H](C)[C@@](O)(O2)C(=O)C(=O)N2CCCC[C@H]2C(=O)O[C@H]([C@H](C)C[C@@H]2CC[C@@H](OC(=O)NCCOCCOCCOCCOCCOCCOCCOCCOCCC(=O)N3CCc4cc(Cn5nc(-c6ccc7oc(N)nc7c6)c6c(N)ncnc65)ccc4C3)[C@H](OC)C2)C[C@@H](O)[C@H](C)/C=C(\C)[C@@H](O)[C@@H](OC)C(=O)[C@H](C)C[C@H](C)/C=C/C=C/C=C/1C		phase 1 dose escalation, item: pneumonia	advanced solid tumour patients	intravenous, 8 mg weekly, grade ≥3	dose-reducing adverse events	0%
CCCCCCCCCCCCCCCC(=O)N[C@@H](CCC(=O)NCCCC[C@H](NC(=O)[C@H](CC(=O)O)NC(=O)[C@H](CO)NC(=O)[C@@H](NC(=O)[C@H](Cc1ccccc1)NC(=O)[C@@H](NC(=O)CNC(=O)[C@H](CCC(N)=O)NC(=O)[C@H](CO)NC(=O)[C@@H](N)Cc1c[nH]cn1)[C@@H](C)O)[C@@H](C)O)C(=O)N[C@@H](CO)C(=O)N[C@@H](CCC(=O)O)C(=O)N[C@@H](Cc1ccc(O)cc1)C(=O)N[C@@H](CC(C)C)C(=O)N[C@@H](CC(=O)O)C(=O)N[C@@H](CO)C(=O)N[C@@H](CCC(=O)O)C(=O)N[C@@H](CCCNC(=N)N)C(=O)N[C@@H](C)C(=O)N[C@@H](CCCNC(=N)N)C(=O)N[C@@H](CC(=O)O)C(=O)N[C@@H](Cc1ccccc1)C(=O)N[C@H](C(=O)N[C@@H](C)C(=O)N[C@@H](Cc1c[nH]c2ccccc12)C(=O)N[C@@H](CC(C)C)C(=O)N[C@@H](CCC(=O)O)C(=O)N[C@@H](C)C(=O)NCC(=O)NCC(=O)O)C(C)C)C(=O)O		item: decreased appetite	human, CrCl ≥30 to <45 mL/min	subcutaneous, 100 µg single dose	treatment-related adverse events	18.2%
O=S(=O)(Nc1ccccc1)c1ccc(NC(=S)Nc2ccccc2)cc1		item: CREA	male mouse, blood	oral, 5 mg/kg daily, 14 days	blood chemistry level	0.2 mg/dL
CN(C(=O)n1cnc(-c2ccc[n+]([O-])c2)c1)C1CCCCC1			Wistar rat, hippocampus	oral, 10 mg/kg, 1 h, single dose	concentration	388 ± 43.2 ng/g
CCc1ccc(CC/C=C/c2ccc3c(c2)C(=O)CC3)cc1			Sprague-Dawley rat, female	oral, 120 mg/kg/day, 14 days	Mononuclear percentage	3.27%
CCOC(=O)N1CCC(=C2c3ccc(Cl)cc3CCc3cccnc32)CC1	Plasmodium falciparum		D10		IC50	10 µM
C=C(C)[C@@H]1CCC(C)=C[C@H]1c1c(O)cc(CCCCC)cc1O			human	750 mg, trial 17074, added: rifampicin 600 mg	subjects with Diarrhea	6%
Clc1cc(Cl)c(-c2c(Cl)cc(Cl)cc2Cl)c(Cl)c1			fresh water	20 °C, S30-2 sampler, 30 µm	log K(PDMS-water)	6.6 ± 0.05
COc1cc2c(Oc3ccc4[nH]c(C)cc4c3F)ccnc2cc1OCC1(N)CC1			paediatric refractory sarcoma patients	10 mg	blurred vision incidence	0%
CN1CC[C@@H](c2c(O)cc(O)c3c(=O)cc(-c4ccc(C(F)(F)F)cc4Cl)oc23)[C@@H]1CO		item: Lymphopenia	relapsed B-cell malignancies or AML	oral, 50 mg, grade 3-4, continuous dosing	patients with adverse event	12.5%
N.N.O=C([O-])C1(C(=O)[O-])CCC1.[Pt+2]		item: unbound platinum	human, plasma ultrafiltrate	intravenous, AUC 3, median, dose level -1	Tmax	36 min
C[N+](C)(C)CCCCCNCC12CC3CC(CC(C3)C1)C2	Plasmodium falciparum		W2		IC50	5.01 µM
CC1(C)C(C=C(Cl)Cl)C1C(=O)OC(C#N)c1ccc(F)c(Oc2ccccc2)c1 (centres unmarked)		item: CYP2C19	human, age 6 months, recombinant human CYP2C19	0.1 µM	enzyme contribution to clearance	0.42%
Clc1cc(Cl)c(-c2cc(Cl)ccc2Cl)c(Cl)c1			fresh water	20 °C, S100 sampler, 100 µm	log K(PDMS-water)	5.99 ± 0.04
CC(C)C[C@@H]1NC(=O)CNC(=O)[C@H](CC(N)=O)NC(=O)[C@H](CCCNC(=N)N)NC(=O)[C@H]([C@@H](C)O)NC(=O)[C@@H]2CSSC[C@@H]3NC(=O)[C@H]([C@@H](C)O)NC(=O)CNC(=O)CNC(=O)[C@H](C(C)C)NC(=O)[C@@H]4CSSC[C@H](NC(=O)[C@H]([C@@H](C)O)NC(=O)[C@H](CSSC[C@H](NC(=O)[C@H](C(C)C)NC(=O)[C@@H]5CCCN5C1=O)C(=O)NCC(=O)N[C@@H](CCC(=O)O)C(=O)N[C@@H]([C@@H](C)O)C(=O)N4)NC(=O)CNC(=O)[C@H](CCCCN)NC(=O)[C@H]([C@@H](C)O)NC(=O)[C@H](CC(N)=O)NC3=O)C(=O)N[C@@H](CO)C(=O)N[C@@H](Cc1c[nH]c3ccccc13)C(=O)N1CCC[C@H]1C(=O)N[C@@H](C(C)C)C(=O)N2		HPLC	ammonium bicarbonate	180 µM, 7 days, pH 9.0, 25 °C, deamidation stability	remaining peptide	93.9 ± 0.6%
CC(C)C[C@H](NC(=O)[C@H](CCC(N)=O)NC(=O)[C@H](CO)NC(=O)[C@H](CO)NC(=O)[C@H](CCCNC(=N)N)NC(=O)[C@H](CCCNC(=N)N)NC(=O)[C@H](CCCNC(=N)N)NC(=O)[C@H](CC(C)C)NC(=O)[C@H](Cc1c[nH]cn1)NC(=O)[C@@H](NC(=O)[C@H](CCCCN)NC(=O)[C@H](CCCNC(=N)N)NC(=O)[C@H](CCCNC(=N)N)NC(=O)[C@H](CCCNC(=N)N)NC(=O)[C@H](CCC(N)=O)NC(=O)[C@H](CCCNC(=N)N)NC(=O)[C@H](CCCNC(=N)N)NC(=O)[C@H](CCCCN)NC(=O)[C@H](CCCCN)NC(=O)[C@H](CCCNC(=N)N)NC(=O)CNC(=O)[C@@H](N)Cc1ccc(O)cc1)[C@@H](C)O)C(=O)N[C@@H](CCCCN)C(N)=O		open field test	rat	intra-CA1 bilateral, dose not given, 5 min	centre time	no effect
CN[C@@H](C)C(=O)N[C@H]1CN(S(=O)(=O)c2cccc(S(=O)(=O)N3CC[C@H]4CC[C@@H](C(=O)NC(c5ccccc5)c5ccccc5)N4C(=O)[C@@H](NC(=O)[C@H](C)NC)C3)c2)CC[C@H]2CC[C@@H](C(=O)NC(c3ccccc3)c3ccccc3)N2C1=O			patients with advanced solid tumours	0.3 mg, phase I monotherapy	treatment-related facial nerve disorder incidence	0%

For quick reference, copied from above:
Compound	tested on	test	test system	conditions	measurement	value
C[N+](C)(C)CCCCCNCC12CC3CC(CC(C3)C1)C2	Plasmodium falciparum		W2		IC50	5.01 µM
CC1(C)C(C=C(Cl)Cl)C1C(=O)OC(C#N)c1ccc(F)c(Oc2ccccc2)c1 (centres unmarked)		item: CYP2C19	human, age 6 months, recombinant human CYP2C19	0.1 µM	enzyme contribution to clearance	0.42%
